Measured values collected from several papers.
Lines come from different studies, so protocols differ. Numbers after ± are the reported error.

COc1cc(/C=C/C(=O)O)ccc1O — TNF-α level (BV-2; ELISA; 10 µM, with: LPS 1.0 µg/mL): 234 pg/mL
C[n+]1cc(NC(=O)c2ccc3ccc4ccc(C(=O)Nc5cc6ccccc6[n+](C)c5)nc4c3n2)cc2ccccc21 — GI50 (MRC5; cell growth or viability, ATP luminescence; 96 h): 34.8 µM
CC(Cc1ccc(Cl)cc1)=C(c1ccc(Cl)cc1)c1ccc(OCCN(C)C)cc1 — GI50 (Hs-578T; cell growth or viability, SRB): 4.72 µM
COC(=O)c1ccccc1-c1c2ccc(=O)cc-2oc2cc(OCCCCC[P+](c3cc(C)cc(C)c3)(c3cc(C)cc(C)c3)c3cc(C)cc(C)c3)ccc12 — Pearson coefficient (HeLa cells; confocal microscopy; with: MitoTracker Deep Red): 0.877 ± 0.018
COc1cc(CNC(=O)C[C@H](C)CCC=C(C)C)ccc1OCc1cn(-c2ccc(Cl)c(Cl)c2)nn1 — growth percent (RPMI-8226 leukaemia cells; SRB; 10 µM, 48 h): 77.6%
CC(=O)OC[C@H]1O[C@@H](Sc2sc(C(=O)c3ccc(C)cc3)c(N)c2-c2nc3ccccc3s2)[C@H](OC(C)=O)[C@@H](OC(C)=O)[C@H]1OC(C)=O — growth (IGROV-1; SRB; 10 µM, 48 h; baseline: untreated): 58.4%
COc1cccc2c1C(=O)c1c(O)c3c(c(O)c1C2=O)C[C@@](O)(C(=O)CO)C[C@@H]3O[C@H]1C[C@H](N)[C@H](O)[C@H](C)O1 — intracellular ROS level (human dermal fibroblasts; DCFDA fluorescence; concentration not given, 4 h; baseline: DMSO): increased
O=Cc1c(O)ccc2ccccc12 — log2 fold change (HUVEC; RNA sequencing, measured: HOXB9; 75 µM, 24 h; baseline: DMSO): 2.79
CC/C=C\C/C=C\C/C=C\C/C=C\C/C=C\C/C=C\CCC(=O)Nc1ccn(C2OC(CO)C(O)C2(F)F)c(=O)n1 (stereo not shown) — GI50 (SF-539; cell growth or viability, SRB): 0.0287 µM
COC(=O)c1ccccc1-c1c2ccc(=O)cc-2oc2cc(OCCCCC[P+](c3ccccc3)(c3ccccc3)c3ccccc3)ccc12 — fluorescence ratio (HeLa cells; confocal microscopy; mitochondria; 100 nM; baseline: MitoTracker Deep Red): 0.065
CCCC(CCC)C(=O)[O][Pt]([NH2])([NH2])([Cl])([Cl])[O]C(=O)c1ccccc1OC(C)=O — resistance factor (C13 and 2008; cytotoxicity, MTT; baseline: IC50 C13 over IC50 2008): 1.1
CC(=O)OC[C@H]1O[C@@H](Sc2sc(C(=O)c3ccc(Br)cc3)c(N)c2-c2nc3ccccc3s2)[C@H](OC(C)=O)[C@@H](OC(C)=O)[C@@H]1OC(C)=O — growth (Hs-578T; SRB; 10 µM, 48 h; baseline: untreated): 93.8%
Cc1cc(N)c2ccccc2[n+]1CCCCCCCCCCCCCC[n+]1c(C)cc(N)c2ccccc21 — viability decrease (NB12 neuroblastoma tumour-initiating cells; alamarBlue; concentration not given, primary screen): 74%
CCCC[C@H](NC(=O)[C@H](Cc1ccccc1)NC(=O)[C@H](Cc1c[nH]cn1)NC(=O)C[C@@H](NC(=O)[C@@H](NC(=O)[C@H](C)NC(=O)[C@H](Cc1c[nH]c2ccccc12)NC(=O)[C@H](CCC(N)=O)NC(=O)[C@H](N)Cc1ccc(O)cc1)C(C)C)c1ccccc1)C(N)=O — EGFR tyrosine phosphorylation (NCI-H1299 expressing BRS-3; EGFR transactivation, Western blot; 100 nM): increased
COc1cc2c(cc1C)NC(=O)C2=Cc1c(Cl)[nH]c2c1ccc1ccccc12 — TGI (melanoma subpanel of NCI-60; 48 h): 7.94 µM
C=CC(=O)Oc1ccc(Cl)cc1C(=O)Nc1ccc([N+](=O)[O-])cc1Cl — cell growth (C4-2B MDVR cells; total cell number; 0.5 µM, 5 days): decreased
COc1cc(O)c(-c2c(O)cc(OC)c3c2ccc2cc(O)ccc23)c2ccc3ccccc3c12 — cytokine release (BV-2; ELISA, measured: TNF-α; concentration not given, pretreatment, with: LPS): decreased
COc1cc(CNC(=O)C[C@H](C)CCC=C(C)C)ccc1OCc1cn(-c2ccc([N+](=O)[O-])cc2)nn1 — growth percent (SK-MEL-2 melanoma cells; SRB; 10 µM, 48 h): 64.5%
Cc1ccc(C2=Nn3c(N/N=C4/C(=O)Nc5ccc(Br)cc54)nnc3SC2)cc1 — inhibition (SF-539; cell growth or viability, SRB; 10 µM): 12%
COc1cc(C2Oc3ccc(C=C4Oc5cc(O)ccc5C4=O)cc3OC2CO)cc(OC)c1O (stereo not shown) — selectivity ratio (MRC5 over HeLa; cytotoxicity, MTT; 72 h; baseline: IC50 MRC5 over IC50 HeLa): 1.15
COc1cc(CNC(=O)C[C@H](C)CCC=C(C)C)ccc1OCc1cn(-c2ccccc2[N+](=O)[O-])nn1 — growth percent (U-251 CNS cancer cells; SRB; 10 µM, 48 h): 62.8%
CN1CCN(C(=O)N(CCCCCCC(=O)NO)c2ccc(-c3ccc4cnn(C)c4c3)cc2)CC1 — acetylation (MM1.S; immunoblot, measured: tubulin; 30 to 1000 nM, 6 h): increased
COc1cc(C(=O)c2[nH]c(N)nc2-c2cccs2)cc(OC)c1OC — dead cells (HeLa cells; propidium iodide staining; 200 nM, 24 h): 74%
COc1ccc2nc(Cl)c(-c3nc4cc(F)ccc4[nH]3)cc2c1 — IC50 (L02; cell growth or viability, MTT; 48 h): > 100 µM
COc1cc(CNC(=O)C[C@H](C)CCC=C(C)C)ccc1O — growth percent (SK-MEL-2 melanoma cells; SRB; 10 µM, 48 h): 102%
CCCCCCCCCCCCCCCC(=O)N[C@@H](CCCCNC(=O)[C@H](CCCCNC(=O)CCC(=O)NCCN(C)CCNc1ccnc2cc(C(F)(F)F)ccc12)NC(=O)CCC(=O)NCCN(C)CCNc1ccnc2cc(C(F)(F)F)ccc12)C(=O)N[C@@H](CS)C(=O)NCC(=O)NCC(=O)NCC(=O)N[C@@H](C)C(=O)N[C@@H](CCCNC(=N)N)C(=O)N[C@@H](CCCCN)C(=O)N[C@@H](CCCCN)C(=O)N[C@@H](C)C(=O)N[C@@H](C)C(=O)N[C@@H](CCCCN)C(=O)N[C@@H](C)C(=O)N[C@@H](C)C(=O)N[C@@H](CCCNC(=N)N)C(=O)N[C@@H](CCCCN)C(=O)N[C@@H](CCCCN)C(=O)N[C@@H](C)C(=O)N[C@@H](C)C(=O)N[C@@H](CCCCN)C(=O)N[C@@H](C)C(=O)N[C@@H](C)C(=O)N[C@@H](CCCNC(=N)N)C(=O)N[C@@H](CCCCN)C(=O)N[C@@H](CCCCN)C(=O)N[C@@H](C)C(=O)N[C@@H](C)C(=O)N[C@@H](CCCCN)C(=O)N[C@@H](C)C(=O)N[C@@H](C)C(=O)N[C@@H](CCCNC(=N)N)C(=O)N[C@@H](CCCCN)C(=O)N[C@@H](CCCCN)C(=O)N[C@@H](C)C(=O)N[C@@H](C)C(=O)N[C@@H](CCCCN)C(=O)N[C@@H](C)C(N)=O — transfection efficiency (HCE-S; fluorescence microscopy; 17.5 µM, 24 h, 140:1 ratio, with: 125 nM siGLO siRNA): > 90%
CCN(CC)CCNC(=S)Nc1ccc2nc(N3CCN(CC)CC3)cc(C)c2c1 — decrease in foci-positive cells (BCR-ABL1+ BRCA1-deficient 32Dcl3; measured: GFP-RAD52 foci; 2.5 µM, with: cisplatin; baseline: cisplatin alone): 2 to 2.5 fold
O=C(Nc1ccccc1)c1ccc(Nc2nnc(-c3ccc(O)cc3)c3ccccc23)cc1 — anandamide uptake (rat cortical neurons; inhibitor; dose not given, with: [3H]-anandamide): inhibited
CC(=O)N[C@H](C(=O)N[C@H](C(=O)N[C@@H](CCCNC(=N)N)C(=O)N1Cc2ccccc2C[C@H]1C(=O)N[C@@H](Cc1ccccc1)C(N)=O)C1CCCCC1)C(C)C — cytokine level (MBP-specific BC-3 T cells; Bio-Plex multiplex, measured: IL-2; 200 µg/mL, 24 h, with: MBP87-99 antigen): < 2.7 pg/mL
COc1ccc([C@@H]2CC(=O)c3c(O)cc(O[C@@H]4O[C@H](CO[C@@H]5O[C@@H](C)[C@H](O)[C@@H](O)[C@H]5O)[C@@H](O[C@H]5O[C@H](CO)[C@@H](O)[C@H](O)[C@H]5O)[C@H](O)[C@H]4O)cc3O2)cc1O — gap closure (A549; cell migration, scratch; 50 µg/mL, 48 h): 7.3 ± 1.57%
CC(=NNC(=S)NN=C(C(=NO)c1ccccc1)c1ccccc1)c1ccccc1 — relative protein level (MCF7; Western blot, measured: NF-κB p65; IC50 concentration, 24 h; baseline: untreated): 0.81 ± 0.06
COc1cc(CNC(=O)C[C@H](C)CCC=C(C)C)ccc1OCc1cn(-c2cccc([N+](=O)[O-])c2)nn1 — growth percent (SF-539 CNS cancer cells; SRB; 10 µM, 48 h): 69.8%
C1=[N+]2CCCC[N+]3=Cc4ccc5[n]4[Au-]23[n]2c1ccc2-c1nc2ccccc2nc1-5.F[P-](F)(F)(F)(F)F — GI50 (CNS cancer cell lines; NCI60 panel mean): 3 µM
N#Cc1cccc(/C=C/C(=O)c2ccc(O)cc2)c1 — downregulated E2F target genes (U-87 MG; concentration not given; baseline: gene set): 65%
Cc1ccc2c(n1)c1nc(C)ccc1c1nc3cc4ccccc4cc3nc21.[Ru+2].c1ccc(-c2cccc(-c3ccccn3)n2)nc1.c1ccncc1 — phototherapeutic index (M2 murine macrophages; baseline: dark EC50 over light EC50): > 45
O=C(CCCCC1SCC2NC(=O)NC21)NCCCCC1CNC(=O)C(=O)N1CC1CCCN1CC(CC1CCCCC1)N1CC(Cc2ccc(O)cc2)N(CCc2ccccc2)C(=O)C1=O (stereo not shown) — lamin A/C cleavage (WM 266-4; western blot, measured: cleaved lamin A/C; 100 µM, 24 h): no effect
COc1cc(CNC(=O)C[C@H](C)CCC=C(C)C)ccc1OCc1cn(-c2cccc(Cl)c2)nn1 — growth (CCRF-CEM; SRB; 10 µM, 48 h): 76.5%
COc1cc(OC)cc([C@@H]2C[C@H](C)OC(=O)c3c(C(=O)C(F)(F)F)c4ccccn4c32)c1 (relative stereo) — selectivity ratio (RWPE-1 and DU-145; resazurin; baseline: CC50 RWPE-1 over IC50 DU-145): 1.03
CCc1cccc(CC)c1NC(=O)c1nn(C)c2c1CCc1cnc(Nc3ccc(N4CCN(C)CC4)cc3OC)nc1-2 — IC50 ratio (HeLa I598F; cell proliferation; baseline: HeLa I598F over parental HeLa): 2.6
COc1cc2c(C=C3C(=O)Nc4ccccc43)c[nH]c2cc1C — TGI (melanoma subpanel of NCI-60; 48 h): 7.41 µM
